Earlier results as cited in several papers.
Each line is one published result; not all experiments were run side by side. ± marks the error that the study gave.
Cytosol aminopeptidase: Cytosol aminopeptidase (Sus scrofa, UniProt P28839)
Sequence of UniProt P28839 (whole entry, looked up): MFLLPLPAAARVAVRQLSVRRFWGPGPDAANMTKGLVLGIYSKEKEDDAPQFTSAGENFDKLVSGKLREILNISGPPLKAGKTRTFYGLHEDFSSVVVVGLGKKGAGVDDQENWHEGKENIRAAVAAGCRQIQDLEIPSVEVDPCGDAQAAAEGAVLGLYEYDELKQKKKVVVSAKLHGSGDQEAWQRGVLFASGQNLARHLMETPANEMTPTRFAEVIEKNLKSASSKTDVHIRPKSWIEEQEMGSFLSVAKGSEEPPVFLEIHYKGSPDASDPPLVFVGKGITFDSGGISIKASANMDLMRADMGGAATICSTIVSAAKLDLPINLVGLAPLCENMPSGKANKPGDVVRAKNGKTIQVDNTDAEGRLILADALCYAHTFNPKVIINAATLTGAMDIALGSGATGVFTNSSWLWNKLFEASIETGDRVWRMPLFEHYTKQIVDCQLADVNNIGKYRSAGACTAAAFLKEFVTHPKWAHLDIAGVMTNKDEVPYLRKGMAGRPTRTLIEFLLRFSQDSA
Sequence of UniProt Q01827 (whole entry, looked up): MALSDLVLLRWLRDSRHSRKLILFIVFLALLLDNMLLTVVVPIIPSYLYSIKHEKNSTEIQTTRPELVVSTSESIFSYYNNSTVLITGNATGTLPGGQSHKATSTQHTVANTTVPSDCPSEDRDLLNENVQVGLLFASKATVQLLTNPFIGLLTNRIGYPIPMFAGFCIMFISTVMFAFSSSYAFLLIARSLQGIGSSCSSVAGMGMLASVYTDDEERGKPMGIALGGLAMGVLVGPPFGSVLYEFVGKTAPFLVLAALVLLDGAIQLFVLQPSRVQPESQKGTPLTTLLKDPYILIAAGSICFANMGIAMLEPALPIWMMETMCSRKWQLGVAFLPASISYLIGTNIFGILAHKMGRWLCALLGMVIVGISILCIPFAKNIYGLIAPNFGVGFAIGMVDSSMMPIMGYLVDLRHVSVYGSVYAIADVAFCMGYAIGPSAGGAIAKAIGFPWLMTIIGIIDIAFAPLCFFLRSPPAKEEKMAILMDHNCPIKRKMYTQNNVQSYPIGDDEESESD
Sequence of UniProt P33533 (whole entry, looked up): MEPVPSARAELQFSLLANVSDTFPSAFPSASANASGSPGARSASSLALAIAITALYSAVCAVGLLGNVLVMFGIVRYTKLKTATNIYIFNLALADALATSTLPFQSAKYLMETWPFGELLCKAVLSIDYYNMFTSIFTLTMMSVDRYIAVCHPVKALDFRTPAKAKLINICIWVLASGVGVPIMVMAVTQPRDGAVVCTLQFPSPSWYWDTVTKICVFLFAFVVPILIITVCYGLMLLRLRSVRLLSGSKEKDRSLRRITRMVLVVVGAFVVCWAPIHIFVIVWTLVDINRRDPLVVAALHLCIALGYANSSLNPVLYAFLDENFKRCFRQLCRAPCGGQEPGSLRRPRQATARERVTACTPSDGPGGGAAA
Sequence of UniProt P23921 (whole entry, looked up): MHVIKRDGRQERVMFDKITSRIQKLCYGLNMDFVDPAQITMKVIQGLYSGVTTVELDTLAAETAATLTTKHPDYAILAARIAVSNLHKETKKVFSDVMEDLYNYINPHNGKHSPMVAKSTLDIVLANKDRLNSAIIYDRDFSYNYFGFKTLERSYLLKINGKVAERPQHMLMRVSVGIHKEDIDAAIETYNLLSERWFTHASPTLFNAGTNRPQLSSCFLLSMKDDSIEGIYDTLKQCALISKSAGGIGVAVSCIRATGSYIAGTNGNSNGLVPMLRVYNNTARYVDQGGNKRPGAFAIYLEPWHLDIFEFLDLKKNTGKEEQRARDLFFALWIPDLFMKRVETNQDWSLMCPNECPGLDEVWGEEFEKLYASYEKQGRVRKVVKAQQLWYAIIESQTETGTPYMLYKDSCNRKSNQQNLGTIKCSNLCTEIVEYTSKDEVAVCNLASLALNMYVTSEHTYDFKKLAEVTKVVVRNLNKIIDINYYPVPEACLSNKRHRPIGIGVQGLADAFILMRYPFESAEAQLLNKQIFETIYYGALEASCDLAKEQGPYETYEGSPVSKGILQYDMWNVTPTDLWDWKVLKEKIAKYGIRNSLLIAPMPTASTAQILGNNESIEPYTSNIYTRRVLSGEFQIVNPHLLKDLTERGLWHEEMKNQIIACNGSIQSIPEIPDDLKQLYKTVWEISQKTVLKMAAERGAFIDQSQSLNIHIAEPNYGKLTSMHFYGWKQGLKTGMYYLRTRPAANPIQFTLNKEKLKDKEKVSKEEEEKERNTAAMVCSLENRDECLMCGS
Sequence of UniProt P25100 (whole entry, looked up): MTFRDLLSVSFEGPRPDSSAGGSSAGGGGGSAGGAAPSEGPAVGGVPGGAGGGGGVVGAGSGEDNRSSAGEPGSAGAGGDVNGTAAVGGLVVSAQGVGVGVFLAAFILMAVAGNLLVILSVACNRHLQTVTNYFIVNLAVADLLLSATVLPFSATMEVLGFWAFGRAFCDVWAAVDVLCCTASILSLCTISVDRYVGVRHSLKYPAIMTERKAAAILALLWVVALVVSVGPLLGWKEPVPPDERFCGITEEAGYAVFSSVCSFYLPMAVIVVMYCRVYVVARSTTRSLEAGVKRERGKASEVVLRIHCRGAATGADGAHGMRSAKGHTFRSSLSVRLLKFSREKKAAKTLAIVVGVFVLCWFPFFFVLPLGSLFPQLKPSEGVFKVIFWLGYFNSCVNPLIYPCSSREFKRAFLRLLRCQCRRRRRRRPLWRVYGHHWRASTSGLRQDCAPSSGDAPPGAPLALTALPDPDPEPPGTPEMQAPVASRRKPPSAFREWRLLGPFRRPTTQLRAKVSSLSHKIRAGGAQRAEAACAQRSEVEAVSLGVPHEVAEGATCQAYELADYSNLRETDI
Sequence of UniProt P31645 (whole entry, looked up): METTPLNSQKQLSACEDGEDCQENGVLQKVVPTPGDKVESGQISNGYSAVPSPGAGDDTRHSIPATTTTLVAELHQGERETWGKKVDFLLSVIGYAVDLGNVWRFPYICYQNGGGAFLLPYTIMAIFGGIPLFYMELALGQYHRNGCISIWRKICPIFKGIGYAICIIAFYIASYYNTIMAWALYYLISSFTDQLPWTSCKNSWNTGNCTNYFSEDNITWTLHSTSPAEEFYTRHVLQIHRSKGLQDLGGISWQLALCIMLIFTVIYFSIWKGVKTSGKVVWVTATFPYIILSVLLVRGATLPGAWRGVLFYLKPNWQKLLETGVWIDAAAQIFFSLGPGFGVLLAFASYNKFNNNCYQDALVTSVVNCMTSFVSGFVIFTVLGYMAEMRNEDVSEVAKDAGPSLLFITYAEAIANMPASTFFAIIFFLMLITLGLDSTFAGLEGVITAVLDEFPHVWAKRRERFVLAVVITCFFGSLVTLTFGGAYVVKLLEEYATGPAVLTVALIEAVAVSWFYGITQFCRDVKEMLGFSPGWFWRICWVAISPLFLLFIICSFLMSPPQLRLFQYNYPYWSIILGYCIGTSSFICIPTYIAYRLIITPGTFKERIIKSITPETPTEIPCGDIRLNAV
Sequence of UniProt P02714 (whole entry, looked up): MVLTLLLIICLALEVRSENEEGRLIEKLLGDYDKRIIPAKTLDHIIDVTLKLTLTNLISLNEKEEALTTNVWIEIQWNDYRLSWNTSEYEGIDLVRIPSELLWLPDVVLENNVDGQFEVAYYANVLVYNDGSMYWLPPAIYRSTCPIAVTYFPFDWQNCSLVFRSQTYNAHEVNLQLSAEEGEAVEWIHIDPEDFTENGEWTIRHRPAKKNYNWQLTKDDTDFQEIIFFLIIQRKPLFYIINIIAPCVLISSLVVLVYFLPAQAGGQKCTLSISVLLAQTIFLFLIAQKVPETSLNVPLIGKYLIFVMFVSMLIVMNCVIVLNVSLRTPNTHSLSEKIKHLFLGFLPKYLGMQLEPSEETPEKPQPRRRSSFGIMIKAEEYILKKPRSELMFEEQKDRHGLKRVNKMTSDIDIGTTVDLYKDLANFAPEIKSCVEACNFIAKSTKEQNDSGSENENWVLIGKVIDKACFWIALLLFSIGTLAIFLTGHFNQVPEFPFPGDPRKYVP
Sequence of UniProt O00748 (whole entry, looked up): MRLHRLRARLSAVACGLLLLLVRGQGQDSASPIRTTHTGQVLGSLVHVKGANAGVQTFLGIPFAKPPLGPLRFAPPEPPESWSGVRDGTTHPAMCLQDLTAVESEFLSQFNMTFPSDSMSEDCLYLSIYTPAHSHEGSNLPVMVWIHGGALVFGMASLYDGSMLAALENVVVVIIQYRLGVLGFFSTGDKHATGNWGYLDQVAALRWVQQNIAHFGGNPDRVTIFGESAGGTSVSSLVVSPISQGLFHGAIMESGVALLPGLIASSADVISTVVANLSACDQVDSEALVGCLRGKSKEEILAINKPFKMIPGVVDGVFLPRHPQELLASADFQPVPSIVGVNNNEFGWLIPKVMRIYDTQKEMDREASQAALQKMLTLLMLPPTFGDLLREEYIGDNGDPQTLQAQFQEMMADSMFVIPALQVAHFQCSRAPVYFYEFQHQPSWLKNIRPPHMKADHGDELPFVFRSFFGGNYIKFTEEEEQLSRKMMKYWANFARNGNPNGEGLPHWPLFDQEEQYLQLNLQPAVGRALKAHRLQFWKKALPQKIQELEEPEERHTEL
Sequence of UniProt P02718 (whole entry, looked up): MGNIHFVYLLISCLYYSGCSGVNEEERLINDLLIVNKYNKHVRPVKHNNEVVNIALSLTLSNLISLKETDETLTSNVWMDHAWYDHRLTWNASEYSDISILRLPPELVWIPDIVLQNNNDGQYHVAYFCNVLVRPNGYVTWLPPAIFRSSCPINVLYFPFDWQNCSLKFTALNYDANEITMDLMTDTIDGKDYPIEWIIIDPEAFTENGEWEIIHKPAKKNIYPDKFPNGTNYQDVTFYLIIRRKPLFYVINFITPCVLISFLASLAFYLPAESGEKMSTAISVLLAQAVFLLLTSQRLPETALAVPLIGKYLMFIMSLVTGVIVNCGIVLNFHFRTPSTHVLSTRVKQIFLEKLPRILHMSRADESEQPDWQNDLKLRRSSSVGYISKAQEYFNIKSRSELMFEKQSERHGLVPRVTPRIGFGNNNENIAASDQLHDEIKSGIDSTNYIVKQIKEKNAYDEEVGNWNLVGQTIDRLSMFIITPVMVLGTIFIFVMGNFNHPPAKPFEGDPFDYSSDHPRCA

CC(C)[C@H](NC(=O)[C@H](CCC(=O)O)NC(=O)[C@H](Cc1ccccc1)NC(=O)[C@@H](C)NC(=O)[C@@H](N)Cc1ccc(O)cc1)C(=O)N[C@H](C(=O)NCC(N)=O)C(C)C — Ki (Delta-type opioid receptor (Oprd1, Rattus norvegicus, UniProt P33533); binding; rat brain synaptosomes): 0.00012 µM
O=[P@]1(S)OC[C@H]2O[C@@H](n3cnc4cc(Cl)c(Cl)cc43)[C@H](O)[C@@H]2O1 — Km or Ki (PDE10; cyclic nucleotide hydrolysis, substrate or inhibitor, isothermal titration calorimetry): 4.75 µM
CC(C)CN(C[C@@H](O)[C@H](Cc1ccccc1)NC(=O)O[C@H]1CO[C@H]2OCC[C@H]21)S(=O)(=O)c1ccc(N)cc1 — Ki (PR S17 variant; isothermal titration calorimetry): 0.05 µM
Brc1ccc([C@@H]2CCNC[C@H]2COc2ccc3c(c2)OCO3)cc1 — Ki (serotonin transporter; [3H]5-HT uptake, inhibitor): 0.00313 µM
O=c1c(-c2cccnc2)ccc2n1C[C@@H]1CNC[C@H]2C1 — Ki (CHRNA1/CHRNG/chrnd (Tetronarce californica, UniProt P02710+P02714+P02718)): > 5 µM
CCC(CC)O[C@@H]1C=C(C(=O)O)C[C@H](N)[C@H]1NC(C)=O — Ki (human Neu2; enzyme activity, inhibitor): 432 µM
C=C1CC[C@@H]2[C@@H](C1)c1c(OC)cc(C(C)(C)CCCCCC)cc1OC2(C)C — Ki (CB1 receptor; binding): 4.8 µM
CN1[C@@H](CC(=O)c2ccccc2)CCC[C@H]1C[C@H](O)c1ccccc1 — Ki (alpha7 nicotinic acetylcholine receptor; binding; together with: [3H]methyllycaconitine): 11.6 µM
O=[As](O)(O)O — Ki (Triosephosphate isomerase, glycosomal (Trypanosoma brucei brucei, UniProt P04789, L232A); enzyme activity, inhibitor; pH 7.5, 25 °C, ionic strength 0.1 (NaCl), together with: dihydroxyacetone phosphate): 4600 µM
Nc1nc2c(ncn2[C@@H]2O[C@H](COP(=O)(O)OP(=O)(O)OP(=O)(O)O)[C@@H](O)[C@H]2O)c(=O)[nH]1 — Ki (dengue virus 2 capsid protein; fluorescence polarisation competition): 0.119 µM
C=CCN(CC=C)CCc1c[nH]c2ccccc12 — Ki (Sodium-dependent serotonin transporter (SLC6A4, Homo sapiens, UniProt P31645); binding; together with: [3H]citalopram): 0.15 µM
CN1[C@@H](CCc2ccccc2)CCC[C@H]1CCc1ccccc1 — Ki (alpha4beta2 nicotinic acetylcholine receptor; binding; together with: [3H]nicotine): 77.3 µM
C=C1C[C@H]2CC3(O)O[C@H](C[C@@H](O)CC(=O)O[C@@H]([C@@H](C)O)C[C@@H]4C/C(=C\C(=O)OC)[C@H](OC(=O)/C=C/C=C/CCC)[C@@](O)(O4)C(C)(C)/C=C/[C@@H](C1)O2)C[C@H](OC(C)=O)C3(C)C — Ki (Protein kinase C alpha type (PRKCA, Homo sapiens, UniProt P17252); binding, competitive): 0.00052 ± 6e-05 µM
CNCC(N)P(=O)(O)O (centres unmarked) — Ki (Cytosol aminopeptidase; inhibitor): > 800 µM
COc1cc(O)c2c(O)c3c(=O)cc(C)oc3cc2c1 — Ki (Amine oxidase [flavin-containing] A (MAOA, Homo sapiens, UniProt P21397); competitive inhibitor; binding to free enzyme): 4.38 µM
O=C(O)Cc1cn2nc(-c3ccc(Cl)cc3)ccc2n1 — Ki (GHB high-affinity site, rat; binding; rat cortical membranes): 0.22 µM
Nc1nc(Cl)nc2c1ncn2[C@@H]1O[C@H](COP(=O)(O)OP(=O)(O)OP(=O)(O)O)[C@@H](O)[C@@H]1F — Ki (Ribonucleoside-diphosphate reductase large subunit (Homo sapiens, UniProt P23921); enzyme activity, inhibitor): 0.04 µM
O=c1c2nc(Br)n([C@@H]3O[C@@H]4CO[P@@](O)(=S)O[C@H]4[C@H]3O)c2nc2[nH]c(-c3ccccc3)cn12 — Km or Ki (PDE1C; cyclic nucleotide hydrolysis, substrate or inhibitor, isothermal titration calorimetry): 55.6 µM
Fc1ccc(C2(NCCCOC3CCCCO3)CC3CCC2C3)cc1 (centres unmarked) — Ki (dopamine transporter (DAT); binding, competitive, radioligand binding): 3.16 µM
N#Cc1c(N)nc(SCC(N)=O)c(C#N)c1-c1ccc(OCC2CC2)cc1 — Ki (Adenosine receptor A1 (Mus musculus, UniProt Q60612); binding, antagonist; mouse receptor): 0.351 µM
C=C(C)[C@H]1Cc2c(ccc3c2O[C@@H]2COc4cc(OC)c(OC)cc4[C@@H]2C3=O)O1 — Ki (TSPO; together with: [3H]Ro5-4864): 10.5 µM
COc1ccc(CC[C@H]2CCC[C@@H](CCc3ccc(OC)cc3)N2C[C@@H](O)CO)cc1 (relative stereo) — Ki (alpha4beta2 nicotinic acetylcholine receptor; binding; together with: [3H]nicotine): > 100 µM
CSC[C@H]1CN(Cc2c[nH]c3c(N)ncnc23)C[C@@H]1O — Ki (S-methyl-5'-thioadenosine phosphorylase (MTAP, Homo sapiens, UniProt Q13126); inhibitor): 8.6e-05 µM
NCC(N)P(=O)(O)O (centres unmarked) — Ki (Cytosol aminopeptidase; inhibitor): > 800 µM
C=CCN(CC=C)CCc1c[nH]c2ccc(OC)cc12 — Ki (Alpha-1D adrenergic receptor (ADRA1D, Homo sapiens, UniProt P25100)): > 10 µM
O=S(=O)(Nc1ccc(Oc2ccccc2)cc1)c1ccc(Br)cc1 — Ki (Cocaine esterase (CES2, Homo sapiens, UniProt O00748)): > 100 µM
CCC[C@@]1(CCc2ccccc2)CC(O)=C([C@H](CC)c2cccc(NS(=O)(=O)c3ccc(C(F)(F)F)cn3)c2)C(=O)O1 — Ki (HIV-1 protease wild type): 1.9e-05 µM
CN1C/C(=C\c2ccc(Cl)cc2Cl)C/C(=C\c2ccc(Cl)cc2Cl)C1 — Ki (Synaptic vesicular amine transporter (Slc18a2, Rattus norvegicus, UniProt Q01827); binding; together with: dihydrotetrabenazine site): 4.6 µM
CC=O — Ki (yeast alcohol dehydrogenase wild-type; inhibitor, product inhibition, slope constant; pH 7.3, 30 °C): 210 µM

Repeated from above:
C=CCN(CC=C)CCc1c[nH]c2ccc(OC)cc12 — Ki (Alpha-1D adrenergic receptor (ADRA1D, Homo sapiens, UniProt P25100)): > 10 µM
CNCC(N)P(=O)(O)O (centres unmarked) — Ki (Cytosol aminopeptidase; inhibitor): > 800 µM
